Measured values collected from several papers.
Protocols differ between the studies behind these lines.

Structure (SMILES)	organism	assay	test system	conditions	MIC
O=C(NCc1nc(-c2ccc(Br)cc2)c[nH]1)Nc1ncc(Sc2ccccn2)s1	Clostridioides difficile	broth microdilution	R20291	–	4 µM
N#Cc1ccc2cccc(O)c2n1	Plesiomonas shigelloides	microbial growth, agar dilution	–	–	1500 µM
CCCCn1ccc([C@H](C)[C@](O)(Cn2cnnn2)c2ccc(F)cc2F)n1	Cryptococcus neoformans	growth, broth microdilution	H99	72 h, 30 °C, ≥50% inhibition	0.25 µg/mL
Oc1c(Br)ccc2cccnc12	Plesiomonas shigelloides	microbial growth, agar dilution	–	–	35.7 µM
CC(=O)N[C@H](CCCCN)C(=O)N[C@H](CC(C)C)C(=O)N[C@H](CCCCN)C(=O)N[C@H](CO)C(=O)N[C@H](CC(C)C)C(=O)N[C@H](CC(C)C)C(=O)N[C@H](CCCCN)C(=O)N[C@@H](C(=O)N[C@H](CC(C)C)C(=O)N[C@H](CO)C(=O)N[C@H](CCCCN)C(=O)N[C@H](C)C(=O)N[C@H](CCCCN)C(=O)N[C@H](CCCCN)C(=O)N[C@H](CCCCN)C(=O)N[C@H](CC(C)C)C(=O)N[C@H](CC(C)C)C(=O)N[C@H](CCCCN)C(=O)N[C@@H](C(=O)N[C@H](C)C(=O)N[C@H](CC(C)C)C(=O)N[C@H](CCCCN)C(=O)N[C@H](C)C(=O)N[C@H](CC(C)C)C(=O)N[C@H](CO)C(=O)N[C@H](CCCCN)C(N)=O)[C@H](C)O)[C@H](C)O	Acinetobacter baumannii	–	759, Mueller-Hinton broth	24 h, 37 °C	0.3 µM
O=[N+]([O-])c1cccc(S(=O)(=O)NC[C@@H](O)[C@@H]2CCc3cc(F)ccc3O2)c1	Bacillus	microbial growth	–	–	14.3 µg/mL
C[C@@H](c1ccn(Cc2ccccc2)n1)[C@](O)(Cn1cnnn1)c1ccc(F)cc1F	Cryptococcus neoformans	growth, broth microdilution	H99	72 h, 30 °C, ≥50% inhibition	0.25 µg/mL
CC[C@@H](C)[C@@H](NC(=O)[C@@H](C)NC(=O)[C@@H](CCCCN)NC(=O)[C@@H](CC(C)C)NC(=O)[C@@H](C)NC(=O)[C@H](NC(=O)[C@@H](Cc1c[nH]cn1)NC(=O)[C@@H](CC(C)C)NC(=O)[C@H](NC(=O)[C@H](NC(=O)[C@@H](CCCCN)NC(=O)[C@H](NC(=O)[C@@H](C)NC(=O)[C@@H](CO)NC(=O)[C@@H](CCCCN)NC(=O)[C@@H](Cc1ccccc1)NC(=O)[C@H](NC(=O)[C@@H](CCCCN)NC(=O)[C@@H](CC(C)C)NC(=O)[C@@H](Cc1ccccc1)NC(=O)[C@@H](CO)NC(=O)[C@@H](CCCCN)NC(=O)[C@@H](Cc1c[nH]c2ccccc12)NC(=O)[C@@H](CCCCN)NC(C)=O)[C@H](C)O)C(C)C)[C@H](C)O)C(C)C)[C@H](C)O)C(=O)N[C@H](CO)C(=O)N[C@H](CO)C(N)=O	Acinetobacter baumannii	–	899, Mueller-Hinton broth	24 h, 37 °C	0.7 µM
C/C(=N/NC(=N)N)c1nnn(-c2ccc(C#CC(C)(C)O)cc2)c1C	Clostridioides difficile	microbial growth, broth dilution	BAA1870	–	16 µg/mL
C[C@@H](c1ccn(Cc2ccc(Cl)cc2)n1)[C@](O)(Cn1cnnn1)c1ccc(F)cc1F	Cryptococcus neoformans	growth, broth microdilution	H99	72 h, 30 °C, ≥50% inhibition	< 0.008 µg/mL
CC[C@@H](C)[C@@H](NC(=O)[C@@H](C)NC(=O)[C@@H](CCCCN)NC(=O)[C@@H](CC(C)C)NC(=O)[C@@H](C)NC(=O)[C@H](NC(=O)[C@@H](CCCCN)NC(=O)[C@@H](CC(C)C)NC(=O)[C@H](NC(=O)[C@@H](CCCCN)NC(=O)[C@@H](CCCCN)NC(=O)[C@@H](CCCCN)NC(=O)[C@@H](C)NC(=O)[C@@H](CCCCN)NC(=O)[C@@H](CO)NC(=O)[C@@H](Cc1ccccc1)NC(=O)[C@H](NC(=O)[C@@H](CCCCN)NC(=O)[C@@H](CC(C)C)NC(=O)[C@@H](Cc1ccccc1)NC(=O)[C@@H](CO)NC(=O)[C@@H](CCCCN)NC(=O)[C@@H](Cc1c[nH]c2ccccc12)NC(=O)[C@@H](CCCCN)NC(C)=O)[C@H](C)O)C(C)C)[C@H](C)O)C(=O)N[C@H](CO)C(=O)N[C@H](CCCCN)C(N)=O	Acinetobacter baumannii	–	964, Mueller-Hinton broth	24 h, 37 °C	1.3 µM
Oc1c(Br)c(Cl)c(Br)c2nc3c(C(F)(F)F)cc(C(F)(F)F)cc3nc12	Gram-positive bacteria	–	–	range over strain panel	0.2 to 4.69 µM
CC[C@@H](C)[C@@H](NC(=O)[C@@H](C)NC(=O)[C@@H](CCCCN)NC(=O)[C@@H](CC(C)C)NC(=O)[C@@H](CC(C)C)NC(=O)[C@H](NC(=O)[C@@H](CCCCN)NC(=O)[C@@H](CC(C)C)NC(=O)[C@@H](C)NC(=O)[C@@H](CCCCN)NC(=O)[C@@H](CCCCN)NC(=O)[C@@H](CCCCN)NC(=O)[C@@H](C)NC(=O)[C@@H](CCCCN)NC(=O)[C@@H](CO)NC(=O)[C@@H](Cc1ccccc1)NC(=O)[C@H](NC(=O)[C@@H](CCCCN)NC(=O)[C@@H](CC(C)C)NC(=O)[C@@H](Cc1ccccc1)NC(=O)[C@@H](CO)NC(=O)[C@@H](CCCCN)NC(=O)[C@@H](Cc1c[nH]c2ccccc12)NC(=O)[C@@H](CCCCN)NC(C)=O)[C@H](C)O)[C@H](C)O)C(=O)N[C@H](CO)C(=O)N[C@H](CCCCN)C(N)=O	Acinetobacter baumannii	broth microdilution	ATCC 17978	24 h, 37 °C	0.7 µM
C[C@@H](c1ccn(Cc2cccc(F)c2F)n1)[C@](O)(Cn1cnnn1)c1ccc(F)cc1F	Cryptococcus neoformans	growth, broth microdilution	H99	72 h, 30 °C, ≥50% inhibition	0.25 µg/mL
C/C(=N/NC(=N)N)c1nnn(-c2ccc(C#Cc3ccsc3)cc2)c1C	Clostridioides difficile	microbial growth, broth dilution	BAA1870	–	32 µg/mL
CC1(C)S[C@@H]2[C@H](NC(=O)[C@H](NC(=O)C3=C(O)C(c4ccccc4F)NC3=O)c3ccccc3)C(=O)N2[C@H]1C(=O)O (some centres unmarked)	Escherichia coli	broth microdilution	BW25113	18 h, together with: clavulanic acid 6 µg/mL	12.5 µg/mL
Oc1c(Cl)cc(Cl)c2cccnc12	Plesiomonas shigelloides	microbial growth, agar dilution	–	–	37.4 µM
C[C@@H](c1ccn(Cc2cc(F)ccc2F)n1)[C@](O)(Cn1cnnn1)c1ccc(F)cc1F	Cryptococcus neoformans	growth, broth microdilution	H99	72 h, 30 °C, ≥50% inhibition	0.25 µg/mL
CC(=NNC(=N)N)c1nnn(-c2ccc(C#CC3(O)CCCCC3)cc2)c1C	Clostridioides difficile	microbial growth, broth dilution	BAA1870	–	8 µg/mL
C[C@@H](c1ccn(Cc2cc(F)cc(F)c2)n1)[C@](O)(Cn1cnnn1)c1ccc(F)cc1F	Cryptococcus neoformans	growth, broth microdilution	H99	72 h, 30 °C, ≥50% inhibition	0.25 µg/mL
Cc1c(CN(C)C(=O)/C=C/c2cnc3c(c2)CC(N)C(=O)N3)oc2ccccc12 (centres unmarked)	Escherichia coli	–	intact outer membrane	–	4 µg/mL
CC(C)c1ccc(Cn2ccc([C@H](C)[C@](O)(Cn3cnnn3)c3ccc(F)cc3F)n2)cc1	Cryptococcus neoformans	CLSI broth microdilution	H99	72 h	< 0.008 µg/mL
N#Cc1ccc(-c2c[nH]c(CNC(=O)Nc3ncc(Sc4ccccn4)s3)n2)cc1	Clostridioides difficile	broth microdilution	R20291	–	8 µM
CO[C@@H](C(N)=O)[C@H](NC(=O)c1ccc(NC(=O)c2ccc([N+](=O)[O-])cc2)cc1)C(=O)Nc1ccc(C(=O)Nc2ccc(C(=O)Nc3ccc(C(=O)O)cc3)c(O)c2OC(C)C)cc1	Proteus mirabilis	microbial growth	DSM4479	–	32 µg/mL
Oc1c(Br)cc(Br)c2nc3cc(SC(F)(F)F)ccc3nc12	Gram-positive bacteria	–	–	range over strain panel	0.04 to 0.78 µM
C[C@@H]1C(=O)O[C@@H](C)/C=C/C=C\[C@@H](C)[C@@H]2C=C[C@@H]3C[C@]4(C)O[C@@H]4[C@@H](C)[C@H]3[C@@H]2C(=O)C(Cl)(Cl)C1=O	Staphylococcus aureus	microbial growth, broth dilution	NEWMAN	–	0.025 µg/mL

Repeated from above:
Structure (SMILES)	organism	assay	test system	conditions	MIC
CO[C@@H](C(N)=O)[C@H](NC(=O)c1ccc(NC(=O)c2ccc([N+](=O)[O-])cc2)cc1)C(=O)Nc1ccc(C(=O)Nc2ccc(C(=O)Nc3ccc(C(=O)O)cc3)c(O)c2OC(C)C)cc1	Proteus mirabilis	microbial growth	DSM4479	–	32 µg/mL
Oc1c(Br)cc(Br)c2nc3cc(SC(F)(F)F)ccc3nc12	Gram-positive bacteria	–	–	range over strain panel	0.04 to 0.78 µM
